Experimental data collected from several papers.
Each numbered part is a random draw from the data of one study; scales do not carry over between parts. “And” joins repeats or separate records; there may be more than shown.
Sequence of UniProt P42336 (whole entry, unmodified, looked up): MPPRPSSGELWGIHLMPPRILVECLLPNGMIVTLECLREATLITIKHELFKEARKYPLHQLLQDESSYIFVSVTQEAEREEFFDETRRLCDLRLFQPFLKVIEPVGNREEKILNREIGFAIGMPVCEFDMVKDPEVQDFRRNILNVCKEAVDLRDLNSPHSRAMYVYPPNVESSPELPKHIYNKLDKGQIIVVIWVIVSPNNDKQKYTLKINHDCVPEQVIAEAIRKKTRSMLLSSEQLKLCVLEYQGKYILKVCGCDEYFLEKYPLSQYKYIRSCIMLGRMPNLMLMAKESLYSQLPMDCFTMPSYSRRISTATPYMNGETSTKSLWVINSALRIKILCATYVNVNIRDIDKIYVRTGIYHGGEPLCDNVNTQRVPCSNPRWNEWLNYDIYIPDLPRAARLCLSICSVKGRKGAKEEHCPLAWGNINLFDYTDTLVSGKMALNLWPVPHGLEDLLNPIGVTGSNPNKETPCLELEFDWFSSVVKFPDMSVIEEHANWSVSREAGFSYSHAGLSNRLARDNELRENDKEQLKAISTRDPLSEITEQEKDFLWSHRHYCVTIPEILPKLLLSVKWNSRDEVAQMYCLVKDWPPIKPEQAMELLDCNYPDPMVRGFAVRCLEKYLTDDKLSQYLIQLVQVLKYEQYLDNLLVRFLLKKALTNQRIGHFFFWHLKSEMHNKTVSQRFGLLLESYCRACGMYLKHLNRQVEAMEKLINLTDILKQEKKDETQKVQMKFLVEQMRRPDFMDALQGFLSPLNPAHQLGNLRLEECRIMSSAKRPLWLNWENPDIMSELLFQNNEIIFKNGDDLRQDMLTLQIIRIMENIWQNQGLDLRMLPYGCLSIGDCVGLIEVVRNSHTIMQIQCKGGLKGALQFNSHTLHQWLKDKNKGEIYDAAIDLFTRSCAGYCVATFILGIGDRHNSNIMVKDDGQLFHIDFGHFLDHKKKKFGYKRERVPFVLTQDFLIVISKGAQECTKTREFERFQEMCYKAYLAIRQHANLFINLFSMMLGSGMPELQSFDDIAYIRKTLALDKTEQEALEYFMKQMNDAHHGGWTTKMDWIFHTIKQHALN
Sequence of UniProt Q9UBF8 (whole entry, looked up): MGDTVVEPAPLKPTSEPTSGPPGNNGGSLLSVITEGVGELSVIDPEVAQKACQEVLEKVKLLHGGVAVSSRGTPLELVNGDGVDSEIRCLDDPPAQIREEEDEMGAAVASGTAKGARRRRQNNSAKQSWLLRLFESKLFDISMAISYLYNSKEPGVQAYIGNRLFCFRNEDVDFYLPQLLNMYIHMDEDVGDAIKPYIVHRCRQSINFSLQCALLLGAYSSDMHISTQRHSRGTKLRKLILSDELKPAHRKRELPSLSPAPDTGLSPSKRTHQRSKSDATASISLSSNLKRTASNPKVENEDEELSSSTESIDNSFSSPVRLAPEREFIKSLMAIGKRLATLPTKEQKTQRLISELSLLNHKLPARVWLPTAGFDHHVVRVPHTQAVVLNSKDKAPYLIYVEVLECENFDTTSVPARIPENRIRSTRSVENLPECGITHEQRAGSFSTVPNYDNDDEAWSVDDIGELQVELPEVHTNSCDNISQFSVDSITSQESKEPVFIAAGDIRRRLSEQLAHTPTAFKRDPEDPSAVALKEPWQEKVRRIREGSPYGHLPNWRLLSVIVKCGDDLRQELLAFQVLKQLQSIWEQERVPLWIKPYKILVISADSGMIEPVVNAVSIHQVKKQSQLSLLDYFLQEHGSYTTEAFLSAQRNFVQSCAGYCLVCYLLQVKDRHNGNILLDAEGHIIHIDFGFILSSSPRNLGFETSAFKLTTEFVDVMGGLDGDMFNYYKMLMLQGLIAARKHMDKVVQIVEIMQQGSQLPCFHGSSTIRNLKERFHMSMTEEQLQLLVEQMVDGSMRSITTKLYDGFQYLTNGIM
Sequence of UniProt P68400 (whole entry, looked up): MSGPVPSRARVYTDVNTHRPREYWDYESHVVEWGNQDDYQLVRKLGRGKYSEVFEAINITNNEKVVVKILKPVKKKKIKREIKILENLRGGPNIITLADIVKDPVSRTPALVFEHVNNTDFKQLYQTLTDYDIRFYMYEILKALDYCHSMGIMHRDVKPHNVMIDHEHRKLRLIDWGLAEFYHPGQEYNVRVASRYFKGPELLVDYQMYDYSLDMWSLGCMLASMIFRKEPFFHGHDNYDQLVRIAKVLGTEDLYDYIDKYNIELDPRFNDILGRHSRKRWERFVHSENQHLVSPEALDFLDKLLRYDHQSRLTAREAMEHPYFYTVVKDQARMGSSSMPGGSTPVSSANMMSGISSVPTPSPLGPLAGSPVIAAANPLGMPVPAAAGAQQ
Sequence of UniProt P42679 (whole entry, looked up): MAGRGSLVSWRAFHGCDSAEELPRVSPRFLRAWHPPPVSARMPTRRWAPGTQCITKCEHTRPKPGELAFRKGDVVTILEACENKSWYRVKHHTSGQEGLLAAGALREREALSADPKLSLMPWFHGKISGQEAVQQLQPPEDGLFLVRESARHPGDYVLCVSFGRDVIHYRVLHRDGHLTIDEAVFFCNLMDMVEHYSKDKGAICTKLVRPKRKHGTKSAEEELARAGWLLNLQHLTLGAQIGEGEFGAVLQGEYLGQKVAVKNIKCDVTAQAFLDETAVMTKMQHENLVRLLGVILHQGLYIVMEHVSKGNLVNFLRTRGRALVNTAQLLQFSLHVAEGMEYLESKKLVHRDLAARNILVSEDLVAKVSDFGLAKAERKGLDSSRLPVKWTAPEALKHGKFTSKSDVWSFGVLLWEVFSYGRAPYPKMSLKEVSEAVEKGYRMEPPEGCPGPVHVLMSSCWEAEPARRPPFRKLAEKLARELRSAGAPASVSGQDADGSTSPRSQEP
Sequence of UniProt Q14289 (whole entry, looked up): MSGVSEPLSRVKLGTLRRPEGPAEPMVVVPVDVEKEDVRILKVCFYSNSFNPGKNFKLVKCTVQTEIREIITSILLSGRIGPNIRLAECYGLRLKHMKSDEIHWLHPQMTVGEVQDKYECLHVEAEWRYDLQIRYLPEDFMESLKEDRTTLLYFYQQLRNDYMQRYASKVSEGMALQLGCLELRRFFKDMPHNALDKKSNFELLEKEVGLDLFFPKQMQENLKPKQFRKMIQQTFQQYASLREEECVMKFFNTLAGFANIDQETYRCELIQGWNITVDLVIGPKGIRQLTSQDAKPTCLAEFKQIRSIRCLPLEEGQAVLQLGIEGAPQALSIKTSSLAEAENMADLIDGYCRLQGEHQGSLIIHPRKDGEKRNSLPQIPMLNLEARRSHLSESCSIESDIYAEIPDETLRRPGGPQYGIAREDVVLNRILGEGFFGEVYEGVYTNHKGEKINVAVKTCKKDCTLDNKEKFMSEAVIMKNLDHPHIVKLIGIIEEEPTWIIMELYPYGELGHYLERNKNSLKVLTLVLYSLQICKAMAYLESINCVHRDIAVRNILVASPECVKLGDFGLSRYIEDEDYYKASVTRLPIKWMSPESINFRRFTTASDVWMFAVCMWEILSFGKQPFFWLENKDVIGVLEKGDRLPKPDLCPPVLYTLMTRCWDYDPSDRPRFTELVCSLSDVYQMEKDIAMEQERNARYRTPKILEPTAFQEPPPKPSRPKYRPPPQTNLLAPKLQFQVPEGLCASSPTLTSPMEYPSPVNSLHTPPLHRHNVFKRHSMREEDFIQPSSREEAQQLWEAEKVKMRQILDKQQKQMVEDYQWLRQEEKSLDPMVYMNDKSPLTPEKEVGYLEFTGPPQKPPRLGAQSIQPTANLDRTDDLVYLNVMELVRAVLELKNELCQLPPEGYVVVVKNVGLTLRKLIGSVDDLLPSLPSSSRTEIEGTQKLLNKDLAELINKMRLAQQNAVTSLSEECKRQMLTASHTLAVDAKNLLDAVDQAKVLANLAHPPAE

Set 1
Cell line: mouse MPNST tumor cells
Method: high-content nuclear imaging
Refers to: cell number
Concentration: 10 µM
Time: 12 h
Setting: mean of 2 replicates
Baseline: plate mean
Reading: higher = more cells
| Compound | nuclei count |
| --- | --- |
| NC(=O)OCC(O)COc1ccc(Cl)cc1 (stereo not shown) | 0.647 z-score |
| COc1cc2nc(N3CCC(N4CCCCC4)CC3)nc(NC3CCCCCC3)c2cc1OC | -6.58 z-score |
| CCCCOc1ccc(C(=O)CCN2CCCCC2)cc1 | -0.693 z-score |
| COc1ccc(CCNCc2ccc(OCc3ccc(Cl)nc3)c(OC)c2)cc1OC | 2.67 z-score |
| Cc1nnc2c3ccccc3c(N[C@@H](C)[C@H](c3ccccc3)N(C)C)nn12 | 2.28 z-score and 0.0583 z-score |
| CC=CC1=C(C(=O)O)N2C(=O)[C@@H](NC(=O)[C@H](N)c3ccc(O)cc3)[C@H]2SC1 | 0.525 z-score |
| Cc1cccc(Oc2cnc(=O)[nH]c2)c1 | 0.298 z-score |
| CC(=O)N1CCN(C(=O)/C=C/c2ccc(Sc3ccccc3C(C)C)c([N+](=O)[O-])c2)CC1 | 1.6 z-score |
| C[C@H]1O[C@@H](O[C@H]2[C@@H](O)C[C@H](O[C@H]3[C@@H](O)C[C@H](O[C@H]4CC[C@@]5(C)[C@H](CC[C@@H]6[C@@H]5C[C@@H](O)[C@]5(C)[C@@H](C7=CC(=O)OC7)CC[C@]65O)C4)O[C@@H]3C)O[C@@H]2C)C[C@H](O)[C@@H]1O | 1.28 z-score |
| Cc1nc2sccn2c(=O)c1CCN1CCC(=C(c2ccccc2)c2ccc(F)cc2)CC1 | 1.91 z-score |

Set 2
Target: Activated CDC42 kinase 1 (TNK2, Homo sapiens, UniProt Q07912)
Sequence of UniProt Q07912 (whole entry, looked up): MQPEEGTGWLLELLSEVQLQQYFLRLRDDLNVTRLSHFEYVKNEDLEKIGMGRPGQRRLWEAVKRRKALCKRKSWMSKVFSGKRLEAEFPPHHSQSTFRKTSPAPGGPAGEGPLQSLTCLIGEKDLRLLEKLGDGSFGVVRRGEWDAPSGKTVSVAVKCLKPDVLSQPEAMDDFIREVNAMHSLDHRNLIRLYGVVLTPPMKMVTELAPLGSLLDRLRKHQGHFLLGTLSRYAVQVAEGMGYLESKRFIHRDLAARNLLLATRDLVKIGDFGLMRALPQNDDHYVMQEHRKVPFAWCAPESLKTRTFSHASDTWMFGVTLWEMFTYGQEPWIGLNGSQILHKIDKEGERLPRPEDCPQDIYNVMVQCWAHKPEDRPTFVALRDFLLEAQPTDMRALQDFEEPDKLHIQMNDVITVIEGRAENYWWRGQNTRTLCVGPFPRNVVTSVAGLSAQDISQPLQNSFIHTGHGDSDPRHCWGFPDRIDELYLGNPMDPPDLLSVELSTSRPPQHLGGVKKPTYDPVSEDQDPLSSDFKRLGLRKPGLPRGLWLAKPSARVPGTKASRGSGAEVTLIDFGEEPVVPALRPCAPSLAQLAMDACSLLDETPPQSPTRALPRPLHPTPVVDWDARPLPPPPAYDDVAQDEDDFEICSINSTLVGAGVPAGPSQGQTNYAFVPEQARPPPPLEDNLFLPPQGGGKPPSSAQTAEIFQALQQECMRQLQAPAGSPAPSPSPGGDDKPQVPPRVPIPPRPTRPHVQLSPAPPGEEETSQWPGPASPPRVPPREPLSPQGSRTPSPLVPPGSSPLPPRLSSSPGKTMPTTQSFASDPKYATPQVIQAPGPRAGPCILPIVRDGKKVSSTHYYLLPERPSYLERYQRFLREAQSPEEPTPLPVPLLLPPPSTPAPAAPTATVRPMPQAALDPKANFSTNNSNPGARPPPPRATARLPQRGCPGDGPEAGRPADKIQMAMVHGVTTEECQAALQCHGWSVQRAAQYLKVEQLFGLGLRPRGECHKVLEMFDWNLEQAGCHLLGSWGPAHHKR
Read-out: enzyme activity
Mode: inhibitor
Concentration: 0.5 µM
Baseline: control
| Structure (SMILES) | remaining activity |
| --- | --- |
| COc1cc(Nc2c(C#N)cnc3cc(OCCCN4CCN(C)CC4)c(OC)cc23)c(Cl)cc1Cl | 3.54% |
| Oc1ccc(Nc2nc(-c3ccc(Cl)cc3)cs2)cc1 | 103% |
| Nc1nccc(-c2c(-c3ccc(F)cc3)ncn2C2CCNCC2)n1 | 98% |
| CC(C)(C)n1nc(Cc2cccc3ccccc23)c2c(N)ncnc21 | 2.36% |
| CCc1[nH]c(-c2ccc(OC)cc2)nc1-c1ccncc1 | 100% |
| COc1ccc(S(=O)(=O)N(CCO)c2ccccc2CN(C)CC=Cc2ccc(Cl)cc2)cc1 | 94.1% |
| CCCC(=O)Oc1ccc2[nH]c(C(=O)c3cc4ccccc4[nH]3)cc2c1 | 77.7% |
| Cc1cc(Nc2nc(-c3ccccc3)nc3ccccc23)n[nH]1 | 10.8% |
| NC(=O)c1ccc(N(C(N)=O)c2c(F)cccc2F)nc1-c1ccc(F)cc1F | 96.1% |
| O=C1Cc2c([nH]c3ccc([N+](=O)[O-])cc23)-c2ccccc2N1 | 74.9% |
| N#CC(=C(N)Sc1ccc(N)cc1)c1ccccc1C(F)(F)F | 100% |
| Cc1ccc(NC2=CC(=O)c3sc(C)nc3C2=O)cc1 | 94.3% |

Set 3
Species: human
Sample: microsomes or S9
Concentration: 2 µM
Time: 0.5 h
| SMILES | remaining compound [%] |
| --- | --- |
| O=c1ccc(Br)cn1Cc1ccccc1Oc1ccccc1 | 3.96 |
| Cc1nc(CCNCc2csc(-c3ncccn3)n2)cs1 | 69 |
| COc1cc(O)ccc1-c1nnc(C)n1-c1ccc(O)cc1 | 63.1 |
| Cc1cc2c(cc1C(=O)N=C(N)N)C(Br)=CC(C)(C)O2 | 62 |
| O=c1[nH]c(NN2CCOCC2)nnc1Cc1ccc(Cl)cc1 | 34.6 |
| OCCCN(CCO)c1ccc2cccc(Br)c2n1 | 8.73 |
| Cn1c(-c2c(N)n(C3CCCC3)c3nc4ccccc4nc23)nc2ccccc21 | > 99 |
| CC(C)(C)OC(=O)N[C@@H](CC(=O)N1CCCCCN1C(=O)C[C@@H](Cc1cc(F)c(F)cc1F)NC(=O)OC(C)(C)C)Cc1cc(F)c(F)cc1F | < 1 |
| Cc1nc(=N)nc2ncc(C(=O)c3ccccc3O)cn12 | 75.9 |
| O=C(c1ccccc1)c1cc2occ(-c3ccccc3)c2cc1O | 71 |
| COc1ccc(Br)c2[nH]c(=O)cc(CCO)c12 | 74.1 |
| Cc1ccc(-c2nn(C(C)(C)C)c(N)c2C#N)cc1 | 34.8 |
| c1ccc(-c2noc(Cc3cn4ccccc4n3)n2)nc1 | 94.9 |
| COc1ccc2c(n1)c1c(n2-c2ccc(N(C)C)cc2)CCC1 | 31.4 |
| CCc1ncc(CN(C)c2ccc(-n3ccc(C)n3)nn2)s1 | 35.6 |
| COc1ccc(Sc2nn(S(C)(=O)=O)c3ccccc23)cc1OC | 11 |

Set 4
Compound: N#Cc1ccc(Nc2ccc3[nH]c(=O)[nH]c3c2)c(Cl)c1
Method: competition with immobilised ligand
Concentration: 1 µM
| target | read-out | remaining binding [%] |
| --- | --- | --- |
| PIK3CA (Homo sapiens, UniProt P42336, E545A) | cell-free assay | 100 |
| PI4KB (Homo sapiens, UniProt Q9UBF8) | cell-free assay | 100 |
| EPHA2 (Homo sapiens, UniProt P29317) | cell-free assay | 84 |
| PIK3CB (Homo sapiens, UniProt P42338) | cell-free assay | 100 |
| PIK3CA (Homo sapiens, UniProt P42336, E545K) | cell-free assay | 79 |
| PTK2B (Homo sapiens, UniProt Q14289) | cell-free assay | 100 |
| PTK2 (Homo sapiens, UniProt Q05397) | cell-free assay | 100 |
| DAPK2 (Homo sapiens, UniProt Q9UIK4) | cell-free assay | 92 |
| PRKACA (Homo sapiens, UniProt P17612) | cell-free assay | 96 |
| EPHB6 (Homo sapiens, UniProt O15197) | cell-free assay | 100 |
| SYK (Homo sapiens, UniProt P43405) | cell-free assay | 100 |
| PIK3CA (Homo sapiens, UniProt P42336, H1047L) | cell-free assay | 78 |
| MATK (Homo sapiens, UniProt P42679) | cell-free assay | 100 |
| BMPR1A (Homo sapiens, UniProt P36894) | binding | 100 |
| CDK11B (Homo sapiens, UniProt P21127) | cell-free assay | 100 |
| Tyrosine-protein kinase JAK1, JH2 (JAK1, Homo sapiens, UniProt P23458) | cell-free assay | 97 |
| CSNK2A1 (Homo sapiens, UniProt P68400) | cell-free assay | 80 |

For quick reference, copied from above (set 3):
| SMILES | remaining compound [%] |
| --- | --- |
| OCCCN(CCO)c1ccc2cccc(Br)c2n1 | 8.73 |
| Cc1cc2c(cc1C(=O)N=C(N)N)C(Br)=CC(C)(C)O2 | 62 |
| CC(C)(C)OC(=O)N[C@@H](CC(=O)N1CCCCCN1C(=O)C[C@@H](Cc1cc(F)c(F)cc1F)NC(=O)OC(C)(C)C)Cc1cc(F)c(F)cc1F | < 1 |
| COc1cc(O)ccc1-c1nnc(C)n1-c1ccc(O)cc1 | 63.1 |
| c1ccc(-c2noc(Cc3cn4ccccc4n3)n2)nc1 | 94.9 |
| COc1ccc(Sc2nn(S(C)(=O)=O)c3ccccc23)cc1OC | 11 |
| O=C(c1ccccc1)c1cc2occ(-c3ccccc3)c2cc1O | 71 |
| Cc1ccc(-c2nn(C(C)(C)C)c(N)c2C#N)cc1 | 34.8 |
